Published values collected from several papers.
Parts stem from different laboratories: compare values within a part only. Positions count from the first letter of the parent shown.

Set 1 — target: CCNB3, cyclin fold, Cln2 fusion (human); technique: yeast growth competition, sequencing; medium: yeast; setting: weak parent motif; relative to: not given; direction: higher = stronger binding
Parent: MICAL3 docking peptide (human); LQLRRQLSFSEDS
`LQLRRQLSFIEDS [S10I]`: “normalised enrichment score” 0.271.
`LQLRRELSFSEDS [Q6E]` — result for “normalised enrichment score”: 0.0657.
`LFLRRQLSFSEDS [Q2F]` — result for “normalised enrichment score”: 0.249.
For `LQLRHQLSFSEDS [R5H]`, “normalised enrichment score” read -0.314.
For `LQLRRQLSFTEDS [S10T]`, “normalised enrichment score” read 0.221.
`LQLRNQLSFSEDS [R5N]`: “normalised enrichment score” 0.447.
`LQLRRQLSFSYDS [E11Y]`: “normalised enrichment score” 0.209.
`LQLRRGLSFSEDS [Q6G]` — result for “normalised enrichment score”: 0.00798.
For `LSLRRQLSFSEDS [Q2S]`, “normalised enrichment score” read 0.159.
Under “normalised enrichment score”, `LQLRTQLSFSEDS [R5T]` is recorded as -0.0565.
Under “normalised enrichment score”, `LQLRRQLEFSEDS [S8E]` is recorded as -0.0902.
`LQLRRALSFSEDS [Q6A]` — result for “normalised enrichment score”: 0.126.
Under “normalised enrichment score”, `LQLRRQLSTSEDS [F9T]` is recorded as 0.102.
`LQLRAQLSFSEDS [R5A]` — result for “normalised enrichment score”: -0.0966.
For `LQLRRQLSDSEDS [F9D]`, “normalised enrichment score” read -0.31.
Under “normalised enrichment score”, `LQLRRQLSFSQDS [E11Q]` is recorded as 0.157.
`LQLRRQLSFSADS [E11A]`: “normalised enrichment score” 0.255.
`LQLRRQLCFSEDS [S8C]`: “normalised enrichment score” 0.189.
Under “normalised enrichment score”, `LQLRRQLSESEDS [F9E]` is recorded as -0.223.
Under “normalised enrichment score”, `LQLRRQLSFSGDS [E11G]` is recorded as 0.341.
Under “normalised enrichment score”, `LQLRRQLSCSEDS [F9C]` is recorded as 0.0378.
For `LQLRRQLSFSERS [D12R]`, “normalised enrichment score” read 0.282.
Under “normalised enrichment score”, `LQLRRQLYFSEDS [S8Y]` is recorded as 0.0923.
For `LQLRRQLSFAEDS [S10A]`, “normalised enrichment score” read 0.00468.
`LRLRRQLSFSEDS [Q2R]` — result for “normalised enrichment score”: 0.0549.

Set 2 — technique: protein-binding microarray; form: double-stranded DNA, one strand shown; medium: in vitro; concentration: 2200 nM top; setting: 60-bp whole probe; with: salmon DNA 0.4 mg/ml; relative to: random background probes; direction: higher = stronger binding; constant ends, left off below: GCCTAGCAC … GTCTTGATTCGCTTGACGCTGCTG
Target: Interferon regulatory factor 7, full length, phosphomimetic (IRF7, Homo sapiens, UniProt Q92985, residues 1-503, S471D/S472D/S475D/S476D/S477D/S483D/S484D/S487D)
Chain of UniProt Q92985 (whole entry, unmodified, looked up): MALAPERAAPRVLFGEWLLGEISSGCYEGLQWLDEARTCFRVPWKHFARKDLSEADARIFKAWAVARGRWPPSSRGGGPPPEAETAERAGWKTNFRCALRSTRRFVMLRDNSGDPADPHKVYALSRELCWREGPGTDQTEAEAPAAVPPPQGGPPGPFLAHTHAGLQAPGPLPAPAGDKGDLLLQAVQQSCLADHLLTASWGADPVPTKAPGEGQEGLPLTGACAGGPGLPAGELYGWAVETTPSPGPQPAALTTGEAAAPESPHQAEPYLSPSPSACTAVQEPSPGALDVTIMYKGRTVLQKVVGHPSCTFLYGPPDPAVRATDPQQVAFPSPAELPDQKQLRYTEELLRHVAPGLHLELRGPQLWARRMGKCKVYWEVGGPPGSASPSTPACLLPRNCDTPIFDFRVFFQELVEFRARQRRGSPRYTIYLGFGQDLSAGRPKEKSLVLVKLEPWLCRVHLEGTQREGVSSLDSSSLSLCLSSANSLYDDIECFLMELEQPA
`TTAGCACTGGGGTATCGATTAGTGCTA` — result for “fitted relative affinity”: -0.168 z-score.
`TTAGGTTTCGACATTCGGTTAGTGCTA` — result for “fitted relative affinity”: 4.98 z-score.
For `GCCGATTTCAGTCTCGAGACGTGCTAG`, “fitted relative affinity” read 1.51 z-score.
For `GACGGTTTCCTTACCCTGACGTGCTAG`, “fitted relative affinity” read 1.96 z-score.
`TTAGATCTCAATCTCGATTAGTGCTAG` — result for “fitted relative affinity”: 0.156 z-score.
`CTCTGGGGCTCCAGGGAGAAGTGCTAG` — result for “fitted relative affinity”: -1.66 z-score.
`GACGGACCGGGTATCGGGACGTGCTAG`: “fitted relative affinity” -1.01 z-score.
Under “fitted relative affinity”, `TTAGTTATCCTTATCCTTTAGTGCTAG` is recorded as 1.42 z-score.
For `GACGGTTTCGACACTGGAGACGTGCTA`, “fitted relative affinity” read 2.39 z-score.
Under “fitted relative affinity”, `GGATGAGCAAGGGGGCCTCGGTGCTAG` is recorded as -0.243 z-score.
For `TTAGGTATCGGTTTCGGTTGGTGCTAG`, “fitted relative affinity” read 9.5 z-score.
`CAAATTGTCTCTGTCCCTGTGTGCTAG`: “fitted relative affinity” 1.45 z-score.
Under “fitted relative affinity”, `TCATTTTTTTACTTCGGACTGTGCTAG` is recorded as 1.53 z-score.
Under “fitted relative affinity”, `TCACATCTCAAGTAGCCTACTGTGCTA` is recorded as 1.02 z-score.
For `TTATATATCGGGACTGGATTAGTGCTA`, “fitted relative affinity” read 0.283 z-score.
Under “fitted relative affinity”, `TACTTTCTTTTTTTCTTTTAGTGCTAG` is recorded as 12.7 z-score.
Under “fitted relative affinity”, `CTAGATCTCAGACTGGATTAGTGCTAG` is recorded as 0.19 z-score.
Under “fitted relative affinity”, `TTAGGTATCCTTTTCATTTAGTGCTAG` is recorded as 1.47 z-score.
Under “fitted relative affinity”, `TAATTTTTTAGCTTCTCAATGTGCTAG` is recorded as 0.277 z-score.

Set 3 — technique: DHFR PCA, deep sequencing; medium: yeast; with: (+)-ABA 58 µM; relative to: wild-type fitted maximum; direction: higher = stronger binding
Target: ABI1, truncated, D143A, DHFR fusion (Arabidopsis thaliana)
Setting: methotrexate growth selection, single substitutions
Parent: PYL1, truncated, DHFR fusion (Arabidopsis thaliana); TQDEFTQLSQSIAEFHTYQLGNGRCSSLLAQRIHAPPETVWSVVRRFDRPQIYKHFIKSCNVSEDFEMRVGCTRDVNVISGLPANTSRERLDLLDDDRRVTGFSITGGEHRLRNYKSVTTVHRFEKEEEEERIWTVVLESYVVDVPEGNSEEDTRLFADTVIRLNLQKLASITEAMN
Under “relative binding score”, `K58S` is recorded as 81.5%.
For `F15G`, “relative binding score” read -8.56%.
For `A13N`, “relative binding score” read 80.3%.
For `Q19E`, “relative binding score” read 94.3%.
Under “relative binding score”, `E147K` is recorded as 79.1%.
`V44R` — result for “relative binding score”: -4.08%.
Under “relative binding score”, `R163H` is recorded as 67.3%.
For `G21L`, “relative binding score” read 81.8%.
For `L93Y`, “relative binding score” read 87.5%.
For `Q10V`, “relative binding score” read 83%.
Under “relative binding score”, `F103C` is recorded as 0.248%.
`R98M`: “relative binding score” 82.9%.
Under “relative binding score”, `S117N` is recorded as 3.87%.
Under “relative binding score”, `F56L` is recorded as 77.1%.
Under “relative binding score”, `M176F` is recorded as 65.2%.
`D3Q`: “relative binding score” 90.4%.
For `H34L`, “relative binding score” read 86.8%.
`Q7C` — result for “relative binding score”: 85.2%.

Set 4 — target: NFIL3, bZIP domain (human); technique: DHFR protein complementation; medium: yeast; relative to: wild-type JUN-FOS pair; direction: higher = stronger binding
Setting: single substitutions, most at no-binding floor
Parent: JUN, bZIP domain (human); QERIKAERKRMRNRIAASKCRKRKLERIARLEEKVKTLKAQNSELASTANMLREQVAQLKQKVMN; partner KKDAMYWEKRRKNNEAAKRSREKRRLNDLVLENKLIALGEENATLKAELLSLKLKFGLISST
The binding fitness of `R53G` is reported as -1.53 natural log.
With `M51F` the binding fitness was -1.57 natural log.
`K34R` gave a binding fitness of -1.36 natural log.
`K39T` gave a binding fitness of -1.44 natural log.
`L59W` has a binding fitness of -1.55 natural log.
`K34H` has a binding fitness of -1.35 natural log.
`A40D` has a binding fitness of -1.26 natural log.
For `A57L`, the binding fitness was -1.33 natural log.
`E54D` gave a binding fitness of -1.56 natural log.
`S43F` gave a binding fitness of -1.48 natural log.
The binding fitness of `E33W` is reported as -1.39 natural log.
For `L52G`, the binding fitness was -1.53 natural log.
With `Q55M` the binding fitness was -1.51 natural log.
`V35N` has a binding fitness of -1.61 natural log.
`A29H` has a binding fitness of -1.53 natural log.
With `E32M` the binding fitness was -1.09 natural log.
`A40M` gave a binding fitness of -1.35 natural log.
With `I28W` the binding fitness was -1.55 natural log.
The binding fitness of `V35K` is reported as -1.33 natural log.
`A40V` has a binding fitness of -1.26 natural log.
`L52Y` has a binding fitness of -1.35 natural log.
The binding fitness of `M51I` is reported as -1.66 natural log.

Set 5 — technique: RNA Bind-n-Seq; form: RNA; medium: in vitro; concentration: 365 nM; relative to: no-protein control; direction: higher = stronger binding
Target: RNA binding protein fox-1 homolog 2, RRM domain, GST-SBP tag (RBFOX2, Homo sapiens, UniProt O43251-10, residues 100-194)
Setting: natural RNA segment, single round, ends assumed
Target sequence (chain): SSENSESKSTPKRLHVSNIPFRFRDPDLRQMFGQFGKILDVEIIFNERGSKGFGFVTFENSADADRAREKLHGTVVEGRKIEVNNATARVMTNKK
For `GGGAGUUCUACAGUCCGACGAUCAGUGAACAAACUGCAUGGCCUUGGAGAGAGACUCUGGGCUCUUGGCUCAGAUGUGUUCAUCAAAUACUCCUUUCAGAGCUGUUGUGGGUGUAAGUGACAUGAUGUGGCCAUGGAAUUCUCGGGUGCCAA`, “RBNS enrichment (R)” read 0.505.
Under “RBNS enrichment (R)”, `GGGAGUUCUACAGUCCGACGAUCUGACAGGAUCCACAGACUUCUCCAGGACCUUCCAGAGACCCUGCCAGCUGUUAGAGGACAGAGCCAGCUCAGUAGGACCUCCUGCUCCUCCCCCCGGCUUCGUGCCCUUUUGGAAUUCUCGGGUGCCAA` is recorded as 0.403.
Under “RBNS enrichment (R)”, `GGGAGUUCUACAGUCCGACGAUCGAUUUCAUCUUCACCUACCAAGAGGCGGCCGCCUCCUUGGACAAGCCGCUCAUGGACCAUUAGACUUGAGAAGACGACCCACGUGGUGACUGCAAAGCCCUGGGUACUUGUGGAAUUCUCGGGUGCCAA` is recorded as 0.408.
`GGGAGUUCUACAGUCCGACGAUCAGGCUGAGGCAGGAGAAUCACUUGAAUCCAGGAGGCGAAGGUUGCAGUGAGCUGAGAUUGUGCUGCUGCACUCCAGCCUGGGAGACAGAGCGAGACUCUGUCUUAAAAAAUGGAAUUCUCGGGUGCCAA` — result for “RBNS enrichment (R)”: 1.
`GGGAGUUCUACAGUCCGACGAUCUCGCCUUUUCUAGUCCAGUAGAGUUGGCACCAAUCCAGCCUUAAAUGGUCCUGGGGAUGCCACCUGCUUCUAUGCUUUAUGCAUCAGGAUACUCUCAGGACGUGAGUGUUUGGAAUUCUCGGGUGCCAA` — result for “RBNS enrichment (R)”: 0.304.
Under “RBNS enrichment (R)”, `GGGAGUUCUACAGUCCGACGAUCGCACUAUUGUCCCGGGGUUGACCCCUGGGGCAGUUCUUGGUGGGUUCUGCUGGGCAGAACACAUGGGUUAAAUCUGUGUAGAGAGUUUUCCUCAUCCUCCAUCCACAAGUUGGAAUUCUCGGGUGCCAA` is recorded as 0.246.
`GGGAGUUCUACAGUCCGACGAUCCCCGGGGCCCCAGGCUGUGUUAGGGUUCUCUGGGCCUCUUCUUUGUACCAGCAGCCCUGCAUACAGGGCCCUGUGAGCCCCCCUGCAGUCCUGUGAGGCCCCUGAAGCUCUGGAAUUCUCGGGUGCCAA` — result for “RBNS enrichment (R)”: 0.382.
`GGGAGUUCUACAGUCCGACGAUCCUAUUUUAGAAGUAGGGUGUGAACAUAUAUUUUUAGAGGAAAAGCUGAUAGUCAUAGGGAAUAUAUGAUUUAUUGGACCAACACCCAAAUCAAGAAGCUUAAAACUGCACUGGAAUUCUCGGGUGCCAA`: “RBNS enrichment (R)” 0.503.

A few entries again (set 2):
`TTAGATCTCAATCTCGATTAGTGCTAG` — result for “fitted relative affinity”: 0.156 z-score.
`CTCTGGGGCTCCAGGGAGAAGTGCTAG` — result for “fitted relative affinity”: -1.66 z-score.
`GACGGACCGGGTATCGGGACGTGCTAG`: “fitted relative affinity” -1.01 z-score.
Under “fitted relative affinity”, `TTAGTTATCCTTATCCTTTAGTGCTAG` is recorded as 1.42 z-score.
For `GACGGTTTCGACACTGGAGACGTGCTA`, “fitted relative affinity” read 2.39 z-score.
Under “fitted relative affinity”, `GGATGAGCAAGGGGGCCTCGGTGCTAG` is recorded as -0.243 z-score.
For `TTAGGTATCGGTTTCGGTTGGTGCTAG`, “fitted relative affinity” read 9.5 z-score.
`CAAATTGTCTCTGTCCCTGTGTGCTAG`: “fitted relative affinity” 1.45 z-score.
Under “fitted relative affinity”, `TCATTTTTTTACTTCGGACTGTGCTAG` is recorded as 1.53 z-score.
Under “fitted relative affinity”, `TCACATCTCAAGTAGCCTACTGTGCTA` is recorded as 1.02 z-score.
For `TTATATATCGGGACTGGATTAGTGCTA`, “fitted relative affinity” read 0.283 z-score.
Under “fitted relative affinity”, `TACTTTCTTTTTTTCTTTTAGTGCTAG` is recorded as 12.7 z-score.
